Measured values collected from several papers.
Every numbered part comes from another study and shows a few of its results, in no order. Changes are numbered by the printed parent chain.

Sample 1 — technique: RNA Bind-n-Seq; form: RNA; matrix: in vitro; concentration: 200 nM; notes: whole 134-nt RNA, ends assumed; with: 150 mM KCl; reference: input library; direction: higher = stronger binding; endpoint: log2 enrichment
Target: Ras GTPase-activating protein-binding protein 1, full length (G3BP1, Homo sapiens, UniProt Q13283)
Sequence of UniProt Q13283 (whole entry, looked up): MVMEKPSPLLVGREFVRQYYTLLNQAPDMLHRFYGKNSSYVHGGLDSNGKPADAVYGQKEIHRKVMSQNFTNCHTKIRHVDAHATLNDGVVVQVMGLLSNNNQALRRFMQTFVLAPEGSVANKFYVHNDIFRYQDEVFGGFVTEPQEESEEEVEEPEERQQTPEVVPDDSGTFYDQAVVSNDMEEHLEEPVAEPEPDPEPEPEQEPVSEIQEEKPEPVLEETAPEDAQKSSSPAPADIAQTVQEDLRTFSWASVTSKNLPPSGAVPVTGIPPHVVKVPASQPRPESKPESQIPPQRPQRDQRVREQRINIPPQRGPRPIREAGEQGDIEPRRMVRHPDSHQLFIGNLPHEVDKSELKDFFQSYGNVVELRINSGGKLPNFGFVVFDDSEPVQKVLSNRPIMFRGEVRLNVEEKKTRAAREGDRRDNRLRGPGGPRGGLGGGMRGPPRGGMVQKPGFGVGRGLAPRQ
Constant ends, left off below: GGGAGUUCUACAGUCCGACGAUC … UGGAAUUCUCGGGUGUCAAGG
Sequence = CCUGUGCUACACAUCGUAUGUACCGAAUCGGAAAAAAAGGAAAAAAAGGGGAAAAAAAGGGAAAGUAUUAUGUUACGCCGUUCGGAUCUG; value = -0.974
Sequence = AGUCCUGUGCUACACAUCGUAUGUACCGAAUCGGGUUUUGGGGUUUUGGGUUUUGGGGAAAGUAUUAUGUUACGCCGUUCGGAUCUGCAC; value = -0.00629
Sequence = GUCCUGUGCUACACAUCGUAUGUACCGAAUCGGGCCCCCCGGCCCCCCGGGCCCCCCGGAAAGUAUUAUGUUACGCCGUUCGGAUCUGCA; value = -0.195
Sequence = UGGCCCUGGUGGCAUGCGGGGAGGAAGAGGUGGCCUCAUGGAUCGUGGUGGUCCCGGUGGAAUGUUCAGAGGUGGCCGUGUUGGAGACAG; value = 0.0313
Sequence = AAGUCCUGUGCUACACAUCGUAUGUACCGAAUCGGAAAAAAAGGUUUGGAAAAAGGAAAGUAUUAUGUUACGCCGUUCGGAUCUGCACUU; value = -1.56
Sequence = CCUCAAGUCCUGUGCUACACAUCGUAUGUACCGAAUCGGAAGGAAGGAAGGGAAAGUAUUAUGUUACGCCGUUCGGAUCUGCACUUCCAG; value = 0.0354
Sequence = CACAGACAACACGCACCCACACAGACACAGAGGGAAGGGGAUGGGAUGGGGACAGGGUGCACAGCAGGGCGGGGUAGGACCCCAGCCCCU; value = 1.86
Sequence = AAGUCCUGUGCUACACAUCGUAUGUACCGAAUCGGUUUGGAAAAAAAGGAAAAAGGAAAGUAUUAUGUUACGCCGUUCGGAUCUGCACUU; value = -1.13
Sequence = CUCAAGUCCUGUGCUACACAUCGUAUGUACCGAAUCGGGCCGGGCCGGGCCGGAAAGUAUUAUGUUACGCCGUUCGGAUCUGCACUUCCA; value = -0.244
Sequence = ACCAUGCAGGUGGGCAUCUUUGGGAAGUGGGGCAAGGGGGGGAUAGGGAGGGGGGUAACACUUUGGGAACAAGUGGUCCCAGGUCGUUUC; value = 1.25
Sequence = UAACUUUAGAGGAGGAUCUGAUGGAUAUGGCAGUGGACGUGGAUUUGGGGAUGGCUAUCAUGGGUAUGGAGGAGGACCUGGAGGUGGCAA; value = 0.313
Sequence = UGCAGGGUCUGGGUAGCAGCUGGGCUUCCAGCUUUCUCCUUGCACCUGACUUGGGCUUUUUUCUCCUCACAGGAUGGGCCUUGACGGCAU; value = -0.412
Sequence = ACCAUGCAGGUGGGCAUCUUUGGGAAGUGGGGCAAGGGGGGGAUAGGGAGGGGGGUAACACUUUGGGAACAGGUGGUCCCAGCUCGUUUC; value = 1.32
Sequence = UCAAGUCCUGUGCUACACAUCGUAUGUACCGAAUCGGUUUUUGGAGGUUUUUGGAAAGUAUUAUGUUACGCCGUUCGGAUCUGCACUUCC; value = -0.665

Sample 2 — technique: protein binding microarray; form: double-stranded DNA, one strand shown; matrix: in vitro; concentration: not given; reference: not given; direction: higher = stronger binding; endpoint: E-score
Target: Histone acetyltransferase KAT6A, both winged helices, GST fusion (KAT6A, Homo sapiens, UniProt Q92794, residues 1-181)
Notes: 8-mer, flanks averaged, mean of 2 arrays, mostly near background
Residues (chain): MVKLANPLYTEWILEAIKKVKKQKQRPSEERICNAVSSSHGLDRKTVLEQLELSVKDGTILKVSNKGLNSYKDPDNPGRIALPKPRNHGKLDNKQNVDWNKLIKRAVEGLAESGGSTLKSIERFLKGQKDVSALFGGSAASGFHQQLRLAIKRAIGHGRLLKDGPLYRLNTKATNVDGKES
Sequence = ACAGGCGC; value = 0.152
Sequence = ATCGCCAA; value = 0.0544
Sequence = CGGGGAAA; value = 0.192
Sequence = AAGGAATT; value = -0.124
Sequence = CTTACAAG; value = -0.0569
Sequence = GATTCGTA; value = 0.103
Sequence = CTTTGTTA; value = -0.0166
Sequence = ACCTCCAG; value = -0.147
Sequence = CTGACGCC; value = 0.0691
Sequence = GAGTCAGA; value = 0.0028
Sequence = CCTTAGGA; value = -0.166
Sequence = CTAAACCC; value = -0.00624
Sequence = AACATCAG; value = -0.135
Sequence = GTTAAGAA; value = 0.00216
Sequence = AATTCAAC; value = -0.00632
Sequence = CCTTAACC; value = -0.138
Sequence = GGCGACGA; value = -0.0276
Sequence = GAGCATAA; value = 0.107
Sequence = CGCTCAGC; value = 0.268
Sequence = AGACGTCC; value = -0.0563
Sequence = AGGCGATA; value = -0.106

Sample 3 — target: CCNE1, cyclin fold, Cln2 fusion (human); technique: yeast growth competition, sequencing; matrix: yeast; notes: strong parent motif; reference: not given; direction: higher = stronger binding; endpoint: normalised enrichment score
Starting sequence: PKMYT1 docking peptide (human); SFEPRNLLSLFED; partner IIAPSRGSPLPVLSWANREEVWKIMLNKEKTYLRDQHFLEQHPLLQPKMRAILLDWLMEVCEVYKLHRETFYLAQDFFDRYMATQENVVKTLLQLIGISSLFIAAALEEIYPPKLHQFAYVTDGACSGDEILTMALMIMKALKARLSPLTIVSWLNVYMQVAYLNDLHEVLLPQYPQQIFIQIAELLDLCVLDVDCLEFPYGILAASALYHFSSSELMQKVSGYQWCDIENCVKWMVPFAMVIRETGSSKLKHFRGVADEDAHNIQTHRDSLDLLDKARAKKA
Change = SFEPANALSLFED [R5A L7A]; value = 0.16
Change = SFEPRNLFSLFED [L8F]; value = 1.11
Change = SFESRNLLSLFED [P4S]; value = 0.884
Change = SFEPRNLLSLSED [F11S]; value = 0.773
Change = SFGPRNLLSLFED [E3G]; value = 0.843
Change = SFEPRNLASLFED [L8A]; value = 1.29
Change = SFEERNLLSLFED [P4E]; value = 0.53
Change = SFMPRNLLSLFED [E3M]; value = 2.49
Change = SFEPRNLLSKFED [L10K]; value = -0.0356
Change = SFEPRNLQSLFED [L8Q]; value = 0.831
Change = MFEPRNLLSLFED [S1M]; value = 2.57
Change = SFQPRNLLSLFED [E3Q]; value = 2.27
Change = SFEPRNLLSLKED [F11K]; value = 0.533
Change = SFEPRWLLSLFED [N6W]; value = 1.3
Change = SFEPRNLLTLFED [S9T]; value = 1.44

Sample 4 — technique: aptamer microarray, sandwich; form: DNA with 2'F-ANA; matrix: in vitro; concentration: 200 nM; with: Cy3 exosite-II aptamer, 400 nM; direction: higher = stronger binding; endpoint: mean fluorescence intensity; sequence: GGTTGGTGTGGTTGG
Target: Prothrombin, mature alpha-thrombin (F2, Homo sapiens, UniProt P00734)
Notes: whole 15-mer aptamer, many near background
Modification = 2'F-ANA at 1 3 4 8 12 14; value = 107 a.u.
Modification = 2'F-ANA at 1 3 5 9 11 13 14 15; value = 45.6 a.u.
Modification = 2'F-ANA at 1 2 4 6 12; value = 286 a.u.
Modification = 2'F-ANA at 3 6 7 14; value = 650 a.u.
Modification = 2'F-ANA at 2 4 5 6 8 9 10 13 15; value = 56.6 a.u.
Modification = 2'F-ANA at 2 3 6 9 12 13; value = 797 a.u.
Modification = 2'F-ANA at 1 3 4 6 7 11 12 13 14 15; value = 72.3 a.u.
Modification = 2'F-ANA at 1 2 3 4 6 7 10 11 12; value = 73.3 a.u.
Modification = 2'F-ANA at 7 8 9 10 11 12 13; value = 233 a.u.
Modification = 2'F-ANA at 1 2 11 12 13 15; value = 244 a.u.
Modification = 2'F-ANA at 2 3 5 8 10 11 13 15; value = 54.3 a.u.
Modification = 2'F-ANA at 3 5 7 11 15; value = 112 a.u.
Modification = 2'F-ANA at 1 4 6 8 9 10 12 14; value = 62.8 a.u.
Modification = 2'F-ANA at 2 3 6 8 10 11 13; value = 287 a.u.
Modification = 2'F-ANA at 1 3 4 6 9 12 13 14 15; value = 67.5 a.u.
Modification = 2'F-ANA at 4 7 10 12 13 14; value = 61.9 a.u.
Modification = 2'F-ANA at 1 4 6 7 9 12 13 14; value = 51.8 a.u.
Modification = 2'F-ANA at 1 3 4 5 6 7 11 14 15; value = 45.6 a.u.
Modification = 2'F-ANA at 4 5 6 7 9 11 14; value = 45.8 a.u.
Modification = 2'F-ANA at 2 3 4 7 8 9 10 11 12; value = 304 a.u.
Modification = 2'F-ANA at 5 6 7 12 14 15; value = 46.1 a.u.
Modification = 2'F-ANA at 1 6 7 8 9 11 12 13 14; value = 71.1 a.u.
Modification = 2'F-ANA at 3 4 6 7 8 10 12 14; value = 176 a.u.
Modification = 2'F-ANA at 2 5 8 11; value = 65.8 a.u.
Modification = 2'F-ANA at 2 3 4 6 7 11 12 15; value = 595 a.u.

Sample 5 — technique: RNA Bind-n-Seq; form: RNA; matrix: in vitro; concentration: 365 nM; reference: no-protein control; direction: higher = stronger binding; endpoint: RBNS enrichment (R)
Target: RNA binding protein fox-1 homolog 2, RRM domain, GST-SBP tag (RBFOX2, Homo sapiens, UniProt O43251-10, residues 100-194)
Notes: natural RNA segment, single round, ends assumed
Constant ends, left off below: GGGAGUUCUACAGUCCGACGAUC … UGGAAUUCUCGGGUGCCAA
Residues (chain): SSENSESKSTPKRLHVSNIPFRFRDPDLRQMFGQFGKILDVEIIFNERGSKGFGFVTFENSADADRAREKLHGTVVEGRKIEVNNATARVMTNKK
Sequence = UGCCAAAACAUUUGGGCAUUGUGCCCACCACCUGCCCACACAUAGGAAGUCCACUUCAGUAAGUGCAAGGCGCUAGCACCCAUCGAGGUAGAGGACAUUGCUUUAAGCCC; value = 0.26
Sequence = CGGGUUCAAGCGAUUCUUCUGCCUCAGCCUCCCAAGUAGUUGGGAUUACAGACAUGUGCCACCACGCCUGGCUAAUUUUUGUAUUUUUAGUAGAGACAGGGUUUCACCAU; value = 0.337
Sequence = CCCUCAGAGUCCUUUCUCACUGUAGUUCUGUGUGCCUGUUCCCUUCAUGCCUGAGUCAGGAAUACAUGGAGAGACAGCCUACAUCUGACAGACUCCCACAAAACAAACUG; value = 0.463
Sequence = AGGGAACUCUUGGUACCUGGAAAUGUGAAUCUGGAAUAUUACCUGUGUCAUCAAAGUAGUGAUGGAUUCAGUACUCCUCAACCACUCUCCUAAUGAUUGGAACAAAAGCA; value = 2.11
Sequence = GUACUAAUGCUAAUAAUUCCAUCAAAAUUUGCCUGUGGAACAUAUAUUGUCCUUAACUUUAAGAUGUCAUUUCCUGAGACAGACUGUAUGAAGCUAUUGUCAGCUUCUCU; value = 1.83
Sequence = GUACAAUGUUAUUUCAAUCUUAUAUAAAAAUGGUCUUCUGAAAAAUCUAUAAAACAGGCCUGAGAAGAUAGUUCUGGUCUUGUUCUGACUGUGGUAACUAGCUGUGACCA; value = 0.839
Sequence = GUGUCCCCAAGAGUUCCUUGUCACCUCUGUGGUGGGAAGGAAAGUAUGGUUUCCCCAGGUCUGAACUGGGUACCCCCAGGGUGUUUACUAACUCUGGUGAAGGGUUUGGA; value = 0.286
Sequence = CAAGAUAUUUUAAAAUCUGUCACGUAGAACUUGGAUGUACCUGCCCCCAAUCCAUGAACCAAGACCAUUGAAUUCUUGGUUGAGGAAACAAACAUGACCCUAAAUCUUGA; value = 0.403
Sequence = UGAGGCCGAGACCUUGAUGGGAAGAGGAUGCUCCCUUGUUACAAAUAAAGAAGGGCAGUGUGAACCCAGGCAGUUGAUGUCAUGAUUCCAUGUGGCCAGUCCUGUGGGAC; value = 0.447
Sequence = AGGAUCCUCCAAUUUUGGAUCUUCUACAGAUCCCCCAGUGUUCUAGUUUAGUAAACUGGCCCAUUUGGGCUGAAGAACUUGUGUGGAAAGAGUCCAAACAACUCAUCAUU; value = 0.314
Sequence = CUUUGGAAAUUGAGGACUUUUUUUUUUCCUUUGAAAGUAUGGCAUCUGAAGAACACAGUAUCAUGACUCGGGUGGAAAGGGAGGCAGAAGCCAUUUUUCUUUUAGAUGAA; value = 0.43
Sequence = AUGGUCCCAUUCAUUCACUAUUGCCCCCAACCCCGGGAUUUUGGGUGGUCUCCACAGCCACCAUCAUACACUCAUCCCGUGUUUUCUUCCAAAAAGUCACCUCAGCAGCC; value = 0.806

Repeated from above (sample 2):
Sequence = CTTACAAG; value = -0.0569
Sequence = GAGCATAA; value = 0.107
Sequence = GGCGACGA; value = -0.0276
Sequence = CCTTAGGA; value = -0.166
Sequence = GTTAAGAA; value = 0.00216
